Results collected from several papers.
Numbered parts are unrelated; each lists some results of a single study. Changes are numbered by the printed parent chain.

Sample 1 — target: BATF3, bZIP domain (human); technique: DHFR protein complementation; sample: yeast; relative to: wild-type JUN-FOS pair; reading: higher = stronger binding
Notes: single substitutions, most at no-binding floor
Starting sequence: JUN, bZIP domain (human); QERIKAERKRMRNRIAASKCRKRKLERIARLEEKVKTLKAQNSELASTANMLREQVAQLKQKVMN; partner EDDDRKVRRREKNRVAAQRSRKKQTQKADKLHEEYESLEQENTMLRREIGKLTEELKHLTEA
Change | binding fitness
E54S | 0.136 natural log
L59P | -0.594 natural log
V35D | -0.933 natural log
A40H | 0.217 natural log
V35L | 0.152 natural log
E32N | 0.0561 natural log
T48C | 0.139 natural log
R53D | -0.247 natural log

Sample 2 — target: CCNF, cyclin fold, Cln2 fusion (human); technique: yeast growth competition, sequencing; sample: yeast; notes: strong parent motif; relative to: not given; reading: higher = stronger binding; starting sequence: viral docking peptide; TSVRRALFTGGSD
Change | normalised enrichment score
R4T | 4.17
S12K | 7.91
S12I | 8.3
L7C | 0.507
R5T | 0.373
T9L | 8.77
G11Q | 8.26
T9Q | 7.73
T9F | 9.25
L7K | 0.571
A6I | 7.52
A6S | 7.77
L7D | -0.226
F8L | 3.06
A6R | 8.69
F8E | 0.584
L7Y | 0.923

Sample 3 — technique: competition protein-binding microarray; molecule type: double-stranded DNA, one strand shown; sample: in vitro; concentration: 2 µM; added: Pho4 competitor, 0.05 µM; reading: higher = stronger binding
Target: Centromere-binding protein 1, full length, His-tagged (CBF1, Saccharomyces cerevisiae, UniProt P17106, residues 1-351)
UniProt P17106, sequence (whole entry, looked up): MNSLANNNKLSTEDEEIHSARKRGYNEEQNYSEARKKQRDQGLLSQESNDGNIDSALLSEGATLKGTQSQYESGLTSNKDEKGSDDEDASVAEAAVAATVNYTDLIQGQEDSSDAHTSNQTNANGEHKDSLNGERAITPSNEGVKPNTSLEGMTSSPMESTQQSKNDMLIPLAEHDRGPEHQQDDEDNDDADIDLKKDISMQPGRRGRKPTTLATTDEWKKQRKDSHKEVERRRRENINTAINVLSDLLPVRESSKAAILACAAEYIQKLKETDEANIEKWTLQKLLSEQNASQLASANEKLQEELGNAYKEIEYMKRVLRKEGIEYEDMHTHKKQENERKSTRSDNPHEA
Notes: whole 60-bp probe, lowest competitor level
Sequence | fluorescence intensity [a.u.]
TGCAAGAAAAAATAGGTCGTGACAAATTCGCCCCTAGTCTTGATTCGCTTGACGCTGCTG | 152
CGGGGTTAAGTTTGTCAGGTGGGTGGCTTGCAGCAGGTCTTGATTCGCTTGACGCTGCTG | 123
CGACATCTATCGCCATTCGTGCGGACATTTCTCGAAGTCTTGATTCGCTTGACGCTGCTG | 61.5
AGGATCGTTGGTGCTCTCGTGATGGTTCGGTGGCGGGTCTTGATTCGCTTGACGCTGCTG | 133
GCCCCAAAATACTGTCACAGTAAAGACCATGCTTGTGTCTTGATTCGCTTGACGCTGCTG | 67.3
CCCGCCCCGCTCGGTCACGTGAGCCTGGCTCTCACCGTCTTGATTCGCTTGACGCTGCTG | 9420
GACAGATAGGACAAGCATGTGGTCTTGGCGCCTCTGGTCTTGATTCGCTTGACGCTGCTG | 84.8
CTGTGCTGGTCAGCCCATGTGTCTGTCCCTGGCTGGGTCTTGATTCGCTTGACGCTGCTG | 69.7

Sample 4 — technique: RNA Bind-n-Seq; molecule type: RNA; sample: in vitro; concentration: not given; relative to: input RNA pool; reading: higher = stronger binding
Target: RING finger protein unkempt homolog, zinc fingers 1-6, GST-SBP tag (UNK, Homo sapiens, UniProt Q9C0B0, residues 30-357)
Notes: RNA with constant flanks, human and mouse sites, ends assumed
Residues (chain): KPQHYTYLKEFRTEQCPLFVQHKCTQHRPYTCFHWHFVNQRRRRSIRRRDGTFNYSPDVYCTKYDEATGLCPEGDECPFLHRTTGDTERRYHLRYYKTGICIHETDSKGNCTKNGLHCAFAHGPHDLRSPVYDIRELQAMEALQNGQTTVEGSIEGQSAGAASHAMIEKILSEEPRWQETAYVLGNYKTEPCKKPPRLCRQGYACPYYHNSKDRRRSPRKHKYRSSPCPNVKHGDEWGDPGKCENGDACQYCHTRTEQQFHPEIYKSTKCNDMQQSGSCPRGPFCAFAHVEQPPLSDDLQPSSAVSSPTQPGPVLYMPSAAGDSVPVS
Sequence | bound/input enrichment [ratio]
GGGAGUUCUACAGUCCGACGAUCCCAGGGACGUUCUCCCGGAGGGAAUCGUGGGACAGCCAGGGCGUCCCACUCGGAAGAGCUCGCCGGUCUUCACACGUAGUAGCCUUCUCAGGUCUGCAGGGACCACCAGCUGUCAGCCUCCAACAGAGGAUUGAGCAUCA | 0.0678
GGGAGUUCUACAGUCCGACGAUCACAUCAUCAAAAUAUUACUAAAUGCAGGAGCUGAGAUUAACUCUAGAACUGGUAGCAAAUUGGGCAUCUCUCCUCUGAUGUUAGCAGCUAUGAAUGGGCAUACAGCUGCUGUUAAGCUCCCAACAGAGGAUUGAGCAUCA | 3.45
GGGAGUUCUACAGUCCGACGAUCUUGAGCAGCGACCCUUUCAAUUUCAACAAUCAAAAUGGCGUGAACAAGGACGAGAAGGACCACUUGAUUGAACGCCUGUACAGAGAGAUCAGUGGACUGACAGGGCAGCUGGACAACAUGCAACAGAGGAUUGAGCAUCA | 0.316
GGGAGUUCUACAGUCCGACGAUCCUUGGGGAACGGGGGUCGCCCCAGACCUUCGGGGGCUCCUCUGUCUCUAAAGGGAGCGAUGCAGGGCACGACCAGAGCCCCGCUGAAAAGAAGGGACUGCGCUGUCAGAACCCCGCCUGCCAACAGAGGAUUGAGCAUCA | 0.104
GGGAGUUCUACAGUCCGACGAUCUCUAGAGCUCCCCCAAGACUGACUGUAGUGUCCCCUAACCGAGCUACUUCAACGGAAACUAGCUCAUCUGUAGAGACUGAUUUGCAACCCUUCCGGGAAGCCAUAGCUCUGCAUGGUCUUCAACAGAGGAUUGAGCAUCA | 1.47
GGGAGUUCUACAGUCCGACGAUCUCUCUCGAGUUGAAGAAGACUAUCUCUGGAGGAUAAAACAACUAGGAUCCCACUCUCCAGUAGCACUUUUGAAUACCCUAUUCUACUUUAACACUAAGUAUUUUGGCCUGAAAACAGUGGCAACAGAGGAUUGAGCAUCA | 1.04
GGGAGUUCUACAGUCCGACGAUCAGCAGGAAGGGCCUCAUAGCUGCCAUCUGUGCAGGUCCUACGGCUCUGUUGGCUCACGAAGUAGGUUUUGGAUGCAAGGUCACAACACACCCACUGGCUAAGGACAAAAUGAUGAAUGGCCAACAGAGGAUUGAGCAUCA | 1.7
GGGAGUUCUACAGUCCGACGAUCAUAUUUCAUAUUGCAAAGAUGUUUACAAGUAUUUUAAUUUAAGUUCAGUGAACUUUUUUGUAGCUGGGUUAAAUCUUUUUAUUUUAGUAUGGCCUUAUGGCAAAGAACACUGUAUUAUUUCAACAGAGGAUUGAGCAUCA | 2.76

Repeated from above (sample 2):
Change | normalised enrichment score
L7D | -0.226
G11Q | 8.26
